Assay results collected from several papers.
Compare with care: the assays were run in different laboratories. Several values in a cell are separate wells, animals, samples, runs or records. ± marks the error that the study gave.
Chain of UniProt Q9NZ01 (whole entry, looked up): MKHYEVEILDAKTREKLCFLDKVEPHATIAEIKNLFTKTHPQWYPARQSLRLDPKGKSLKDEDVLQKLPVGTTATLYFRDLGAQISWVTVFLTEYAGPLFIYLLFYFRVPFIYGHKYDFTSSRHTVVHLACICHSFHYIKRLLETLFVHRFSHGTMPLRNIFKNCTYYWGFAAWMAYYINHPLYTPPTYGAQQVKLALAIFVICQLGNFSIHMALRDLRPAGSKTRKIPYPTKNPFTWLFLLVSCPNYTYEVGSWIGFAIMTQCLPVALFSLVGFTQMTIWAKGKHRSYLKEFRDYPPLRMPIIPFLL
Chain of UniProt P20813 (whole entry, looked up): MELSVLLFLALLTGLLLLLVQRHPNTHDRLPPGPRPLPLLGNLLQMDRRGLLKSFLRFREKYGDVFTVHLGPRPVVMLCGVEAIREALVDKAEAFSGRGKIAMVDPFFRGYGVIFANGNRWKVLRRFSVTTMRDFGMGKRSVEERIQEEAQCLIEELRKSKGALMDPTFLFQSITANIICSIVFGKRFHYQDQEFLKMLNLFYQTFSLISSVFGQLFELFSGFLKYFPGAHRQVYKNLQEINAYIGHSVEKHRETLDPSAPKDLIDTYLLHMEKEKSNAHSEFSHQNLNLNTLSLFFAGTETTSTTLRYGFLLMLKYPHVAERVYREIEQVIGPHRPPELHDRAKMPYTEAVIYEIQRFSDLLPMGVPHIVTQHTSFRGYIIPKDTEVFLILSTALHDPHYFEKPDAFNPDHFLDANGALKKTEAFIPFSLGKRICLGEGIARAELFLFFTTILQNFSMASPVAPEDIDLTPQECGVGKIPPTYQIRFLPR
Chain of UniProt Q9NZH0 (whole entry, looked up): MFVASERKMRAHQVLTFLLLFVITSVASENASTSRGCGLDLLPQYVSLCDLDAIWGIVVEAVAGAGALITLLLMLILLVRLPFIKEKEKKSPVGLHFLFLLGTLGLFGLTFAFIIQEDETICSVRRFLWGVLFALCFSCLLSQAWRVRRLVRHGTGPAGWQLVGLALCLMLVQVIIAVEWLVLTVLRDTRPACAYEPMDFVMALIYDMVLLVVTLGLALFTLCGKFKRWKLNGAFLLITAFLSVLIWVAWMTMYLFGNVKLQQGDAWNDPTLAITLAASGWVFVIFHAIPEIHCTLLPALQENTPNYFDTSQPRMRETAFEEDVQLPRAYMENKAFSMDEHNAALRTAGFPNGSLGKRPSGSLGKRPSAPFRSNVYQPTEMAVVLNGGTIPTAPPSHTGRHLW
Chain of UniProt Q9Y4K4 (whole entry, looked up): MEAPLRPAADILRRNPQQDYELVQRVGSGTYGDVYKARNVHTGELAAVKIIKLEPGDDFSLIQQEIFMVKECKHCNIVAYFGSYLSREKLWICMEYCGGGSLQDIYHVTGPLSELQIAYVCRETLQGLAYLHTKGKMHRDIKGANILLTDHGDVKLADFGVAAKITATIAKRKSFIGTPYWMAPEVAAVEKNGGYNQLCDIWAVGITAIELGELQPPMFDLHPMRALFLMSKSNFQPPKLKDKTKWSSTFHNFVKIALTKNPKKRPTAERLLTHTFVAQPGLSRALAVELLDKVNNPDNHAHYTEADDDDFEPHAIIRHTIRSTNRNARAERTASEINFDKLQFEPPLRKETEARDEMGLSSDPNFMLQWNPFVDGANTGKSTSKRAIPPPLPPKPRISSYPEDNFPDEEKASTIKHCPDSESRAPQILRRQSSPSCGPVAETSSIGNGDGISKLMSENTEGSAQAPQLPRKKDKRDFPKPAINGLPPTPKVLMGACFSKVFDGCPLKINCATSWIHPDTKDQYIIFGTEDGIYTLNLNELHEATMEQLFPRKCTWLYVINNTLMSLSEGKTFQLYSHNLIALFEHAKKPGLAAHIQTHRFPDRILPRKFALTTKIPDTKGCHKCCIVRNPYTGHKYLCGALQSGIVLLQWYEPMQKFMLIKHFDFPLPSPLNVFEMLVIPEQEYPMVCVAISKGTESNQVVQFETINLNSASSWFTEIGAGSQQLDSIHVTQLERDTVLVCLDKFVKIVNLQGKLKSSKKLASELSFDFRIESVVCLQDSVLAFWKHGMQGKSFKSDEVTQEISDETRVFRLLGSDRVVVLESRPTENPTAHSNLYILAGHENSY

| SMILES | target or system | test | test system | setting | scale | endpoint | value |
| --- | --- | --- | --- | --- | --- | --- | --- |
| O=[N+]([O-])c1ccc(N2CCN(CCC(O)c3ccc(F)cc3)CC2)c(C(F)(F)F)c1 (stereo not shown) | Salmonella typhimurium | genotoxicity, SOS/umu test | TA1535/pSK1002 | 0.008 mg/mL, 4 h, without S9, lower range |  | induction factor | 0.9 |
| CC(=O)OC[C@H]1O[C@@H](Oc2cc(O)cc3cc4oc(C)cc(=O)c4c(O)c23)[C@H](O)[C@@H](O)[C@@H]1O | HepaRG co-cultured with HK-2 | MTT |  | 16.67 µM, 24 h | baseline: untreated control | cell viability | 102 ± 15% |
| CN1CCN(c2cc(-c3ccncc3)c(-c3ccc4ccccc4c3)nn2)CC1 | Lysophosphatidic acid receptor 5 (LPAR5, Homo sapiens, UniProt Q9H1C0) | antagonist, FLIPR |  | 10 µM |  | inhibition | 37.2% |
| COc1cc2ncnc(Nc3cccc(Cl)c3)c2cc1OC | HaCaT |  |  | 100 µM, 60 h |  | viability | 1.84% and 4.05% and 4.89% |
| C[C@H]1CN(c2n[nH]c3nc(N[C@H]4CC[C@H](NS(=O)(=O)CCC(F)(F)F)CC4)ncc23)CCO1 | Very-long-chain enoyl-CoA reductase (Homo sapiens, UniProt Q9NZ01) | Kinobeads competition, refers to: GPSN2 |  | 20 µM, unit not given | baseline: vehicle | remaining binding | 1.09 |
| COc1ccc2c(c1OC)C(=O)c1c(cc(C)c(O)c1OC)C2=O | HepaRG co-cultured with HK-2 | MTT |  | 16.67 µM, 24 h | baseline: untreated control | cell viability | 92 ± 16.5% |
| Cc1cc(C(=O)NC(C)(C)COc2cccc3c2C(N)=NS(=O)(=O)N3)cc(C)n1 | Salmonella typhimurium | Ames test, initial | TA98 | 5.00 µg/plate, added: rat liver S9 | baseline: solvent control | revertant ratio | 0.9 |
| O=C1c2ccccc2C(=O)c2ccccc21 | HepaRG co-cultured with HK-2 | MTT |  | 66.67 µM, 24 h | baseline: untreated control | cell viability | 76.5 ± 2.22% |
| O=c1ccc2ccccc2o1 | HepG2 | refers to: steatosis |  | 24 h, phospholipidosis and steatosis panel |  | point of departure | 598 µM |
| Oc1ccc2c3c1O[C@H]1[C@@H](O)CC[C@@]4(O)[C@@H](C2)N(CC2CCC2)CC[C@]314 | G-protein coupled receptor family C group 5 member B (GPRC5B, Homo sapiens, UniProt Q9NZH0) | β-arrestin recruitment, TANGO luminescence, refers to: GPRC5B |  | concentration not given | baseline: basal luminescence | log2 fold change | 0.336 |
| COc1ccc(N2C(=O)N(c3c(C)cccc3Cl)Cc3cnc(Nc4ccc(C5CCN(C)CC5)cc4OC)nc32)nc1 | Mitogen-activated protein kinase kinase kinase kinase 5 (MAP4K5, Homo sapiens, UniProt Q9Y4K4) | kinase activity |  | 0.5 µM |  | inhibition | 75% |
| COc1cccc(-c2n[nH]c(SCc3ccccn3)n2)c1OC | Salmonella typhimurium | Ames test, preincubation | TA1535 | 0.50 mg/plate, with rat liver S9 |  | revertant colonies per plate | 12 |
| CC[C@H](C)[C@H](NC(=O)[C@H](Cc1ccccc1)NC(=O)[C@H](CCC(=O)O)NC(=O)[C@H](CCCNC(=N)N)NC(=O)[C@H](C)NC(=O)[C@H](C)NC(=O)[C@H](CCC(N)=O)NC(=O)[C@H](CCC(=O)O)NC(=O)[C@H](CCC(=O)O)NC(=O)[C@H](CC(C)C)NC(=O)[C@H](Cc1ccc(O)cc1)NC(=O)[C@H](CO)NC(=O)[C@H](CO)NC(=O)[C@@H](NC(=O)[C@H](CC(=O)O)NC(=O)[C@H](CO)NC(=O)[C@@H](NC(=O)[C@H](Cc1ccccc1)NC(=O)[C@@H](NC(=O)CNC(=O)[C@H](CCC(=O)O)NC(=O)[C@H](C)NC(=O)CCc1c[nH]cn1)[C@@H](C)O)[C@@H](C)O)C(C)C)C(=O)N[C@@H](C)C(=O)N[C@@H](Cc1c[nH]c2ccccc12)C(=O)N[C@@H](CC(C)C)C(=O)N[C@H](C(=O)N[C@@H](CCCNC(=N)N)C(=O)NCC(=O)N[C@@H](CCCNC(=N)N)C(=O)N[C@@H](CCCCNC(=O)COCCOCCNC(=O)COCCOCCNC(=O)CC[C@H](NC(=O)CCCCCCCCCCCCCCCCC(=O)O)C(=O)O)C(=O)NCC(=O)NCC(=O)N[C@@H](CO)C(=O)N[C@@H](CCCCNc1c(NCCCCCN(O)C(=O)CCC(=O)NCCCCCN(O)C(=O)CCC(=O)NCCCCCN(O)C(C)=O)c(=O)c1=O)C(=O)O)C(C)C [zirconium-89 labelled] |  | ex vivo gamma counting | rat, colon content | subcutaneous, 3 nmol/kg, 72 h, added: [89Zr]-labelled peptide |  | tissue uptake | 0.07 %ID/g |
| CC(=O)N1CCC(C(=O)N2CCN3C(=O)c4cc(-c5ccccc5)ccc4NC(=O)C3C2)CC1 (stereo not shown) | Salmonella typhimurium |  | TA100 | 500 µg/plate, with rat liver S9 |  | revertants per plate | 116 |
| Cc1cc2c(c(O)c1O)C(=O)c1c(O)cc(O)cc1C2=O | HK-2 co-cultured with HepaRG | MTT |  | 16.67 µM, 48 h | baseline: untreated control | cell viability | 81.3 ± 5.04% |
| OC(CCN1CC=C(c2ccc(F)cc2)CC1)c1ccc(F)c2ccccc12 (stereo not shown) | Salmonella typhimurium | genotoxicity, SOS/umu test | TA1535/pSK1002 | 0.002 mg/mL, 4 h, with S9, lower range |  | induction factor | 0.9 |
| CC[C@H](C)[C@@H]1NC(=O)[C@@H]2CCCN2C(=O)[C@H](CC(C)C)NC(=O)[C@H](CC(C)C)NC(=O)CNC(=O)[C@@H](NC(=O)[C@@H](NC(=O)[C@H](CC(=O)O)NC(=O)CNC(=O)[C@@H](NC(=O)[C@H](C)NC(=O)CNC(=O)[C@H](CCCCN)NC(=O)[C@H](CC(C)C)NC(=O)[C@H](CC(C)C)NC(=O)[C@H](CCCCN)NC(=O)CNC(=O)[C@@H](NC(=O)[C@@H](N)CC(C)C)C(C)C)C(C)C)C(C)C)CSSC[C@@H](C(=O)O)NC1=O |  | RNA-seq, refers to: Gpr171 | mouse, traumatic brain injury model, frontal cortex and hippocampus | dose not given | baseline: TBI alone | log2 fold change | -2.92 |
| CC(C)CC(=O)OC[C@H]1O[C@@](C#N)(c2ccc3c(N)ncnn23)[C@H](O)[C@@H]1O | Cytochrome P450 2B6 (CYP2B6, Homo sapiens, UniProt P20813) | metabolic stability | recombinant enzyme | 1 µM, 30 min |  | remaining compound | 97.4 ± 8.2% |
| [Cl-].[Cl-].[Pt+2].[Ru+2].c1ccc(-c2nc3cc4ccccc4cc3nc2-c2ccccn2)nc1.c1cnc2c(c1)ccc1cccnc12.c1cnc2c(c1)ccc1cccnc12 | Danio rerio |  | embryos | 15 µM, 24 h |  | survival rate | 96.7 ± 2.2% |
| CN/C(=N\[N+](=O)[O-])NCc1cnc(Cl)s1 |  |  | soil | 0 days, nominal 0.12 |  | concentration | 0.07 mg/kg dry soil |
| [Cl-].[Cl-].[Pt+2].[Ru+2].c1ccc(-c2nccnc2-c2ccccn2)nc1.c1cnc2c(c1)ccc1cccnc12.c1cnc2c(c1)ccc1cccnc12 | Danio rerio |  | embryos | 15 µM, 12 h |  | survival rate | 93.3 ± 2.1% |
| COc1cc(Nc2ncc(F)c(Nc3ccc4c(n3)NC(=O)C(C)(C)O4)n2)cc(OC)c1OC | Na+/K+-ATPase (pig) | ATPase activity, inhibitor | heart |  |  | IC50 | > 10 µM |
